Experimental data of several laboratories.
Each numbered part is a random draw from the data of one study; scales do not carry over between parts. Values joined by “and” are separate records of one study, mostly repeats; a detail may differ.
Chain of UniProt P11802 (whole entry, looked up): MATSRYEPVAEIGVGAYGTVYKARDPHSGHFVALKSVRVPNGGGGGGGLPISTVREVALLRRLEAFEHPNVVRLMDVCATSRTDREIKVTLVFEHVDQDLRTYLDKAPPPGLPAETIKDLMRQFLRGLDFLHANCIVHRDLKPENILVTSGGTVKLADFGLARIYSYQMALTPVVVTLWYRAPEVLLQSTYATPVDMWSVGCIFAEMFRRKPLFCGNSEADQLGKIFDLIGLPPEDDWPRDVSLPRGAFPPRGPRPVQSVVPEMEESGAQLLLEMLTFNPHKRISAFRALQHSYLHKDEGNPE
Chain of UniProt P54762 (whole entry, looked up): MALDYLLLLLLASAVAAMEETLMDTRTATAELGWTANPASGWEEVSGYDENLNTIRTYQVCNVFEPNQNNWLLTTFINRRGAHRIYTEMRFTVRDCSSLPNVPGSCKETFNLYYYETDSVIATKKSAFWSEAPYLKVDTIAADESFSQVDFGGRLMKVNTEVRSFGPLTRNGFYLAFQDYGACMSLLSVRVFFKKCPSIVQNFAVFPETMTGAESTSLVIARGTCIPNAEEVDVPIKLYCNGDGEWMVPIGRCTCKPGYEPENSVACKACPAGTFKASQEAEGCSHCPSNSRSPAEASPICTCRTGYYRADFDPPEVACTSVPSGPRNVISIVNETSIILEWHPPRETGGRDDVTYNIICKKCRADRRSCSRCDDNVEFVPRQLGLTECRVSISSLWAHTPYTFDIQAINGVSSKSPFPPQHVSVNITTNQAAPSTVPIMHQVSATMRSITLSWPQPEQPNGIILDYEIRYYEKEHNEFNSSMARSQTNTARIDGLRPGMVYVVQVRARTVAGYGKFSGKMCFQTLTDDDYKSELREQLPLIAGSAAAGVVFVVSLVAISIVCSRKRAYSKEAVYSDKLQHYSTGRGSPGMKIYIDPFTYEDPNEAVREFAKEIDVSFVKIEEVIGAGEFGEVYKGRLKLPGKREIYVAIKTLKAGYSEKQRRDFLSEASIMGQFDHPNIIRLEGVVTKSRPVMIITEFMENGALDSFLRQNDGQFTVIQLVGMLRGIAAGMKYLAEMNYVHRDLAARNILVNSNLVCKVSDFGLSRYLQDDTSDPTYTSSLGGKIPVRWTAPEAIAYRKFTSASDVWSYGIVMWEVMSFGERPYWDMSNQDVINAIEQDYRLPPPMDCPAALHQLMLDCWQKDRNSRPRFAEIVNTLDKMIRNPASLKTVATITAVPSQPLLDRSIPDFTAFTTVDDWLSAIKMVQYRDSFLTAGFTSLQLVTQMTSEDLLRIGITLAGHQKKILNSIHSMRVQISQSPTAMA
Chain of UniProt O75716 (whole entry, looked up): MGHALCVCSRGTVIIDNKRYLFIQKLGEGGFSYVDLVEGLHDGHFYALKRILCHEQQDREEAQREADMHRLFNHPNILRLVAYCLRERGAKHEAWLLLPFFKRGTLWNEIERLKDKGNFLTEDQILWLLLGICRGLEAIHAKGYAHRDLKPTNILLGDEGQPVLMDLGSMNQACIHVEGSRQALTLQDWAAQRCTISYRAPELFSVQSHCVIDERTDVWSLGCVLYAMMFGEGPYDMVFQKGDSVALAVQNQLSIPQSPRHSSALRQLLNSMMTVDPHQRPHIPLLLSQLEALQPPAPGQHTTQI
Chain of UniProt Q00534 (whole entry, looked up): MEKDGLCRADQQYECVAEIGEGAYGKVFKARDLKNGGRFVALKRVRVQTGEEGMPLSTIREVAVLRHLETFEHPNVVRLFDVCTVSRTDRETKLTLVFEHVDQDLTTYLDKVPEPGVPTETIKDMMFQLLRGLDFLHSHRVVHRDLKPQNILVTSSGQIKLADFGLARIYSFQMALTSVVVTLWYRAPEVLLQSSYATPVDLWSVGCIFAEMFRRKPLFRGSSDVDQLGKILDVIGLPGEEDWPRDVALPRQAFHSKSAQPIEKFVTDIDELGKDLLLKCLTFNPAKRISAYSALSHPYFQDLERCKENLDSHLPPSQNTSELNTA

Block 1
Species: human
Sample: microsomes or S9
Concentration: 2 µM
Time: 0.5 h
Measurement: remaining compound
Clc1nnc(Cl)c2c1ncn2Cc1ccccc1: 87.7%
Cc1c(C(=O)O)[nH]c(CCNC(=O)OC(C)(C)C)c1S(N)(=O)=O: 78.3%
CN/C(=N/c1cc(C)nn1-c1ccccc1)c1cccs1: 24.6%
Cc1cc(Br)ccc1OCCOCCN1CC(C)OC(C)C1 (stereo not shown): 4.07%
CN(Cc1n[nH]c2c1CCCCC2)C(=O)CCC1(Cc2ccc(-c3ccccc3)cc2)CCC(=O)N1 (stereo not shown): 0.588%
O=c1c2c3nc4ccccc4nc3n(C3CCCC3)c2ncn1Cc1ccco1: 68%
Cc1ccccc1/N=C1\Nc2cccc3cccc1c23: 2.77%
CCCC1(c2ccccc2)OC(=O)C(C)=C1c1ccccc1 (stereo not shown): 91.4%
Cc1sc2[nH]c(=O)n3nc(-c4ccncc4)nc3c2c1C: 23.1%
CS(=O)(=O)N1N=C(c2cccs2)CC1c1ccccc1F (stereo not shown): 43%
COC(=O)c1cc(Br)c(=O)n(-c2nccs2)c1: 0.298%

Block 2
SMILES: CN1CCN(c2ccc3nc(-c4c(N)c5c(F)cccc5[nH]c4=O)[nH]c3c2)CC1
Effect on: enzyme activity
Mode: inhibitor
Concentration: 0.5 µM
Baseline: control
Measurement: remaining activity
PHKG1 (Homo sapiens, UniProt Q16816): 30.4%
PDPK1 (Homo sapiens, UniProt O15530): 88%
DYRK3 (Homo sapiens, UniProt O43781): 103%
STK16 (Homo sapiens, UniProt O75716): 46.3%
Cyclin-dependent kinase 6, with cyclin D3 (CDK6, Homo sapiens, UniProt Q00534): 31.9%
HIPK2 (Homo sapiens, UniProt Q9H2X6): 81.5%
MAPKAPK3 (Homo sapiens, UniProt Q16644): 99.3%
BLK (Homo sapiens, UniProt P51451): 12.3%
CAMK2B (Homo sapiens, UniProt Q13554): 85.6%
WNK3 (Homo sapiens, UniProt Q9BYP7): 96.1%
RPS6KA5 (Homo sapiens, UniProt O75582): 81.1%
Cyclin-dependent kinase 4, with cyclin D3 (CDK4, Homo sapiens, UniProt P11802): 89.6%
Cyclin-dependent kinase 1, with cyclin B (CDK1, Homo sapiens, UniProt P06493): 90.9%
PRKACG (Homo sapiens, UniProt P22612): 119%
HIPK4 (Homo sapiens, UniProt Q8NE63): 96.3%
RPS6KA6 (Homo sapiens, UniProt Q9UK32): 16.1%
STK17A (Homo sapiens, UniProt Q9UEE5): 68%
EPHA4 (Homo sapiens, UniProt P54764): 93.4%
TSSK2 (Homo sapiens, UniProt Q96PF2): 80.6%
SRMS (Homo sapiens, UniProt Q9H3Y6): 94.4%
EPHB1 (Homo sapiens, UniProt P54762): 58.1%
EPHB4 (Homo sapiens, UniProt P54760): 73.5%
MAP4K4 (Homo sapiens, UniProt O95819): 2.96%

Block 3
Target: Alpha-2C adrenergic receptor (ADRA2C, Homo sapiens, UniProt P18825)
Chain of UniProt P18825 (whole entry, looked up): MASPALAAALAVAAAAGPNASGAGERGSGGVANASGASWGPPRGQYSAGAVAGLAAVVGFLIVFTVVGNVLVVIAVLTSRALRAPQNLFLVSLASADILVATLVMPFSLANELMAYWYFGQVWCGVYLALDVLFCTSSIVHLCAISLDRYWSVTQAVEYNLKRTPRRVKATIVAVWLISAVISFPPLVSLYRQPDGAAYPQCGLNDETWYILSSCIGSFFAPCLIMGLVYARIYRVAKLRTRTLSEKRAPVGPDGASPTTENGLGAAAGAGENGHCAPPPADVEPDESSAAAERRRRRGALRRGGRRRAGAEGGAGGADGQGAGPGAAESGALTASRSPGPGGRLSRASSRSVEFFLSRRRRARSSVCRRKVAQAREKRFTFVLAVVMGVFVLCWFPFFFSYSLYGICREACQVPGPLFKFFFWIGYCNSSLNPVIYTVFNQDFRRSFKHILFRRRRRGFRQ
Effect on: ligand displacement
Concentration: 10 µM
Measurement: inhibition
O=C(NCCCC1CCCCC1)c1ccc(CNC(=O)c2cnn(-c3ccccc3)c2C(F)(F)F)cc1: 3.68%
CO[C@H]1CC[C@H](CNc2ccc(S(=O)(=O)NC(=O)c3ccc(N4CCN(CC5=C(c6ccc(Cl)cc6)CC(C)(C)CC5)CC4)cc3Oc3cnc4[nH]ccc4c3)cc2[N+](=O)[O-])CC1: 15.6%
N#CC1(c2ccccn2)CCN(Cc2cc(C(=O)N3CCCC3)c(=O)n3ccccc23)CC1: 1.13%
O=c1nc(-c2ccccn2)sc2ccccc12: -9.43%
CN(C)CC#Cc1ccc(OCCCc2sc(N3CCc4cccc(C(=O)Nc5nc6ccccc6s5)c4C3)nc2C(=O)O)c(F)c1: 10.8%
Cc1c(NC(=O)c2cc(C(N)=O)nc3cc(F)ccc23)c(C(F)(F)F)nn1Cc1ccc(C#N)cc1: -0.745%
C[C@H](c1ccnc(Nc2nc3ccc(-c4cc(N(C)C)ncn4)cc3[nH]2)c1)N1CCN(C(=O)CC(F)(F)F)CC1: 9.82%
Nc1cnc(N2CCc3cc(S(=O)(=O)Nc4c(F)cc(Cl)cc4F)cc(N4CCCC4=O)c32)nc1: -14.3%
CCOc1ccc(S(=O)(=O)Nc2ccc(Cl)cc2C#Cc2cnc(C(=O)O)cc2OC)c2ncccc12: 27.7%
O=C(N[C@H]1CCCCC/C=C\C2C[C@@]2(C(=O)O)NC(=O)[C@@H]2C[C@@H](Oc3ccncc3)CN2C1=O)OC1CCCC1 (stereo partly shown): -4.47%
CC1CCN(c2ccnc(NCc3cn(C)cn3)n2)CC1: 51.8%
CN1CCN(c2ccnc(NCCc3ccccc3)n2)CC1: 96.8%
COc1cc(C(=O)O)ncc1C#Cc1ccccc1NS(=O)(=O)c1cccc2c(N(C)C)ccnc12: 13%
CC1=C(C#N)C(c2ccc3[nH]nc(C)c3c2)C(C#N)=C(C)N1: -4.65%
Cc1cc(Nc2nccc(C)n2)cc(-c2cnc([C@@]3(O)CC[C@H](C(=O)O)C(C)(C)C3)s2)c1: -3.94%
Cc1ncc(-c2cc(Cl)ccc2F)cc1-n1c(=O)n(CC(N)=O)c2ccccc21: 17.9%
CN(C)C(=O)c1sc2nc(N3CCC(S(C)(=O)=O)CC3)cc(C(F)(F)F)c2c1N: 2.96%
O=S(=O)(NC1CCC(c2cc(F)ccc2F)(S(=O)(=O)c2ccc(Cl)cc2)CC1)C(F)(F)F (stereo not shown): 18.2%
CCC(F)(F)c1cc(N2CCC(S(C)(=O)=O)CC2)nc2sc(C(N)=O)c(N)c12: 13.7%
NC(=O)c1ccc2nc(-c3ccc(C4(N)CCC4)cc3)c(-c3ccccc3)n2n1: 38.9%
CN(C)c1ncnc(-c2ccc3nc(Nc4cc(CN5CCN(C(=O)CC(F)(F)F)CC5)ccn4)[nH]c3c2)c1Cl: 7.09%
CS(=O)(=O)N1CCCC(NC(=O)[C@H](CCC2CCCCC2)NC(=O)c2ccc(CNC(=O)c3cnc4ccccn34)cc2)C1 (stereo partly shown): 5.25%
CCc1ccccc1C(=O)Nc1n[nH]c2c(C)c(F)c(C3C(C#N)=C(C)N(C)C(C)=C3C#N)cc12: 10%

Block 4
Target: DNA polymerase theta, ATPase domain (POLQ, Homo sapiens, UniProt O75417)
Chain of UniProt O75417 (whole entry, unmodified, looked up): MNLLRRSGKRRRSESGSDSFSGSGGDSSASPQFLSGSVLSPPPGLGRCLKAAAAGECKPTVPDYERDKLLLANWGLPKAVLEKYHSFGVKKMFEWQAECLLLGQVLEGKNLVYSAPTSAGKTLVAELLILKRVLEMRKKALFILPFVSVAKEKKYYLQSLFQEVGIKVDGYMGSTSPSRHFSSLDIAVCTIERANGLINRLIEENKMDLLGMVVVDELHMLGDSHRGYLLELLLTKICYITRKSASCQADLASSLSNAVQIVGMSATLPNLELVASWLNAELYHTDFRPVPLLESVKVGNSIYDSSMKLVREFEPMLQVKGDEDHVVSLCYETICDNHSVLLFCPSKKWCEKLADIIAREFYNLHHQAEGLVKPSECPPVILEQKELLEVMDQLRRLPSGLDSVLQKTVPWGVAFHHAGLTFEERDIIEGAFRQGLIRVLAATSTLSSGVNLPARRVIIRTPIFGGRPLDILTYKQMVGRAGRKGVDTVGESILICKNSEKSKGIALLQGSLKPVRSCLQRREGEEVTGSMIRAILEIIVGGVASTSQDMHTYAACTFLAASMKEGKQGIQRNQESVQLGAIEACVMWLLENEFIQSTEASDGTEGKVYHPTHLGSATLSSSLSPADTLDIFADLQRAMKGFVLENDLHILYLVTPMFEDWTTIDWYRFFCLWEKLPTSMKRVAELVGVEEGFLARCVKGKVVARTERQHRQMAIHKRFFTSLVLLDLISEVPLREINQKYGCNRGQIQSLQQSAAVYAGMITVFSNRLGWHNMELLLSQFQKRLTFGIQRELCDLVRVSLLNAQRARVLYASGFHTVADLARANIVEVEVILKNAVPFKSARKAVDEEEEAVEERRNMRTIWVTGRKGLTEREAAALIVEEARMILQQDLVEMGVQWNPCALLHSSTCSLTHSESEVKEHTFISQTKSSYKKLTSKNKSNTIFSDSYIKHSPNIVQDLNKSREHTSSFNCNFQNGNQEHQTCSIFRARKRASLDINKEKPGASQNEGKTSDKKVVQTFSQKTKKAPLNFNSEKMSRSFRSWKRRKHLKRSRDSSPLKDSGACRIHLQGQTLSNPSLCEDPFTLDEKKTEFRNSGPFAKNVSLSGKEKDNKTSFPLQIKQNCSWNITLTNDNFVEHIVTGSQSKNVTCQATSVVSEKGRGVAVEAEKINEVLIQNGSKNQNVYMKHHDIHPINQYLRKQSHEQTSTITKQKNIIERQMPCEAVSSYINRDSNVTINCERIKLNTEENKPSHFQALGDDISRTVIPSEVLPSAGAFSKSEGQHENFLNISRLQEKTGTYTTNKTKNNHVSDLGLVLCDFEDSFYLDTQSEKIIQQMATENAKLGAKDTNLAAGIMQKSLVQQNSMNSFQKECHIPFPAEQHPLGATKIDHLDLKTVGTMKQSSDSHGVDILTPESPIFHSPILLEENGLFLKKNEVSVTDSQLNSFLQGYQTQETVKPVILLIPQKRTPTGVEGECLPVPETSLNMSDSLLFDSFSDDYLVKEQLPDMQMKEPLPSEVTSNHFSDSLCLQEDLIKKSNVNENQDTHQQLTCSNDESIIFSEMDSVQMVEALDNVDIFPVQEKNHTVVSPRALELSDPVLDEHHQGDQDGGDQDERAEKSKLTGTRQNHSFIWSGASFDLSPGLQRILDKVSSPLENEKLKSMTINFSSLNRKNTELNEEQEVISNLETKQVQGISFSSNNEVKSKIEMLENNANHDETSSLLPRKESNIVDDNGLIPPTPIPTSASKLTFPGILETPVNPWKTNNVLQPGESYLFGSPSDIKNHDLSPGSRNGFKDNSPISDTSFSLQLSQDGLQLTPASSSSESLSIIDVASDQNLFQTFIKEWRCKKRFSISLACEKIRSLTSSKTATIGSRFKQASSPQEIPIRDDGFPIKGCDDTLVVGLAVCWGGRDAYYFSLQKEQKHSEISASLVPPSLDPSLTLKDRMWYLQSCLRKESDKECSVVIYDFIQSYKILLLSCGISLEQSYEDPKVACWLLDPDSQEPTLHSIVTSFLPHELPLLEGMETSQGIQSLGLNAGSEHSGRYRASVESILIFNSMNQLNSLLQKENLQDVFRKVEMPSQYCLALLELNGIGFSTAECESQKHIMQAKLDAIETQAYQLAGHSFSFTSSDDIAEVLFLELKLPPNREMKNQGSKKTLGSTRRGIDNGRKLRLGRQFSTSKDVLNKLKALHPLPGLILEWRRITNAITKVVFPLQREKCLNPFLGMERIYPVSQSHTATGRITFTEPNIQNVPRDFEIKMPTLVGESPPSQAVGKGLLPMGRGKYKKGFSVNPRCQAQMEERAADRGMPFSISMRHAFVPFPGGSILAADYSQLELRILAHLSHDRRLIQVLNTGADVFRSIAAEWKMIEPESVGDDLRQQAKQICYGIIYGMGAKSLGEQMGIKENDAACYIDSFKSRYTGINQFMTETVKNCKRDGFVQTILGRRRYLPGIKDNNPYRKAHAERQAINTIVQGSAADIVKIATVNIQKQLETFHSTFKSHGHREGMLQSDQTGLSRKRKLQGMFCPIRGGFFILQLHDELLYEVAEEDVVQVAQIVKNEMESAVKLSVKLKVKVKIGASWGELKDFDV
Effect on: enzyme activity
Mode: inhibitor
Concentration: 77 µM
Baseline: untreated
Measurement: remaining activity
CN1CCc2nc(C(=O)N[C@@H]3C[C@@H](C(=O)N(C)C)CC[C@@H]3NC(=O)C(=O)Nc3ccc(Cl)cn3)sc2C1: 102%
CCc1c2c(nc3ccc(OC(=O)N4CCC(N5CCCCC5)CC4)cc13)-c1cc3c(c(=O)n1C2)COC(=O)[C@]3(O)CC: 86.6% and 77.9%
COC(=O)C[C@H](NC(=O)[C@H](C)NC(=O)[C@@H](NC(=O)OCc1ccccc1)C(C)C)C(=O)CF: 104%
CCCN(CCC)CCc1cccc2c1CC(=O)N2: 96.3%
Nc1nc2n[nH]nc2c(=O)[nH]1: 99.4% and 85.3%
O=C1NC(=O)C(c2cn(CCCO)c3ncccc23)=C1c1cnccn1: 99.5%
O=Nc1ccc2oc(=O)ccc2c1: 102%
COc1cc(SC)ccc1C(=O)N1CCC(Cc2ccccc2)CC1: 108%
CCSC(=N)N: 110%
Brc1ccc([C@H]2CN3CCSC3=N2)cc1: 100% and 90.5%

For quick reference, copied from above (block 3):
Cc1c(NC(=O)c2cc(C(N)=O)nc3cc(F)ccc23)c(C(F)(F)F)nn1Cc1ccc(C#N)cc1: -0.745%
C[C@H](c1ccnc(Nc2nc3ccc(-c4cc(N(C)C)ncn4)cc3[nH]2)c1)N1CCN(C(=O)CC(F)(F)F)CC1: 9.82%
Nc1cnc(N2CCc3cc(S(=O)(=O)Nc4c(F)cc(Cl)cc4F)cc(N4CCCC4=O)c32)nc1: -14.3%
CCOc1ccc(S(=O)(=O)Nc2ccc(Cl)cc2C#Cc2cnc(C(=O)O)cc2OC)c2ncccc12: 27.7%
O=C(N[C@H]1CCCCC/C=C\C2C[C@@]2(C(=O)O)NC(=O)[C@@H]2C[C@@H](Oc3ccncc3)CN2C1=O)OC1CCCC1 (stereo partly shown): -4.47%
